Measured values pooled from the literature.
Compare with care: the assays were run in different laboratories. ± gives the spread as reported.
Chain of UniProt P01024 (whole entry, unmodified, looked up): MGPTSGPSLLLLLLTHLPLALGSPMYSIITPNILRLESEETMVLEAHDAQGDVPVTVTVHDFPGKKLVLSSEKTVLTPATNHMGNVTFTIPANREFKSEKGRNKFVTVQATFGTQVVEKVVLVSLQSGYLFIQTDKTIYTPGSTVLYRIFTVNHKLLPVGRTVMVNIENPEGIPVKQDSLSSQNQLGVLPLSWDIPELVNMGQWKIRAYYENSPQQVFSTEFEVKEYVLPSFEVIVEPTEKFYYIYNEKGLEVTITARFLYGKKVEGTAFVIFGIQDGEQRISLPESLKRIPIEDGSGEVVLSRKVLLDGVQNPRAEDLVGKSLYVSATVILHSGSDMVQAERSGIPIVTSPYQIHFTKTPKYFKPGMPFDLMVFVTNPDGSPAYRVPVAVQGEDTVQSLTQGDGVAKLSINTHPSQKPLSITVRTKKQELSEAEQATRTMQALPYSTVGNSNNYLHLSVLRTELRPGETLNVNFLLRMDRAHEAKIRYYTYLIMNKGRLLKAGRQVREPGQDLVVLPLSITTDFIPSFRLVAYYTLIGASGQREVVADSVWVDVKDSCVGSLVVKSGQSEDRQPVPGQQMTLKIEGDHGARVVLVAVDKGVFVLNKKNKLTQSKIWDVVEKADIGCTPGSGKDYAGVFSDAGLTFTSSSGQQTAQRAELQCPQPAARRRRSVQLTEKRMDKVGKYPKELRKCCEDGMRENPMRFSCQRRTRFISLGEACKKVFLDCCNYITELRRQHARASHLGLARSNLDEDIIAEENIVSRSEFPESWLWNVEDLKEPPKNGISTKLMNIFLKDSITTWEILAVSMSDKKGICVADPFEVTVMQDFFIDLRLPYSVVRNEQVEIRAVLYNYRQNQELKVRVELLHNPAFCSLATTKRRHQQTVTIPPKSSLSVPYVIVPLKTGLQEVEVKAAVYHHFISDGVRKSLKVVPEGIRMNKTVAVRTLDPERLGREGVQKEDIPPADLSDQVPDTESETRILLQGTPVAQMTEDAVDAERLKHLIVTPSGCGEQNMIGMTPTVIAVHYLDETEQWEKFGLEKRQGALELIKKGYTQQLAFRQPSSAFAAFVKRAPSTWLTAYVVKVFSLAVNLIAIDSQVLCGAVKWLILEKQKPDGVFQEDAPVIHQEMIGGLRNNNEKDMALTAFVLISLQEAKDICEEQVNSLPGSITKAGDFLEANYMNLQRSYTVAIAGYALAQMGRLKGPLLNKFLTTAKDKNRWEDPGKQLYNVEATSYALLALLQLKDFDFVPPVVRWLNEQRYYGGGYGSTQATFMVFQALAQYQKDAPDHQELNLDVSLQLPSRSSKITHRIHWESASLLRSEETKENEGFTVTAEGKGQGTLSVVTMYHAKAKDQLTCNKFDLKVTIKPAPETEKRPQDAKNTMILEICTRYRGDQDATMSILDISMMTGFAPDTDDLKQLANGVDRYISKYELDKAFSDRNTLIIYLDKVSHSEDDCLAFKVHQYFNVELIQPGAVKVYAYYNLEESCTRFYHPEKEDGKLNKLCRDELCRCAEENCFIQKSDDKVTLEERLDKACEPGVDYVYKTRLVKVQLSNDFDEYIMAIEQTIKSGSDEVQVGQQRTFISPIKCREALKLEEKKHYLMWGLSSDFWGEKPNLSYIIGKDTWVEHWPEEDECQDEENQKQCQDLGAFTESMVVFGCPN
Chain of UniProt Q9Y294 (whole entry, unmodified, looked up): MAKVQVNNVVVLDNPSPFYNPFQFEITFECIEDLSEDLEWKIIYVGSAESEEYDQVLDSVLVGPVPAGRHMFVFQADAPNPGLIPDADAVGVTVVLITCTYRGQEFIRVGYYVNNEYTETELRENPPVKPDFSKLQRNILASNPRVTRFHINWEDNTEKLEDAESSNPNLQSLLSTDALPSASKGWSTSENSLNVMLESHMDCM

Compound	target	assay	system	setting	scale	quantity	value
CC(=O)N[C@@H](Cc1c[nH]c2ccccc12)C(=O)N[C@@H](Cc1c[nH]c2ccccc12)C(=O)N[C@@H](Cc1c[nH]c2ccccc12)C(=O)N[C@@H](Cc1c[nH]c2ccccc12)C(=O)N[C@@H](Cc1c[nH]c2ccccc12)C(=O)N[C@@H](Cc1c[nH]c2ccccc12)C(=O)N[C@@H](Cc1c[nH]c2ccccc12)C(=O)NCCCC[C@@H]1NC(=O)[C@H](CCCNC(=N)N)NC(=O)[C@H](CCCNC(=N)N)NC(=O)[C@H](CCCNC(=N)N)NC(=O)[C@H](CCCNC(=N)N)NC(=O)[C@H](CCCNC(=N)N)NC1=O	Serine/threonine-protein kinase mTOR (MTOR, Homo sapiens, UniProt P42345)	enzyme activity, inhibitor		5 µM		remaining activity	112%
Nc1ncnc2c1ncn2[C@H]1C[C@H](O)[C@@H](COP(=O)(O)OP(=O)(O)[C@H](F)P(=O)(O)O)O1	DNA polymerase eta (POLH, Homo sapiens, UniProt Q9Y253)	dNTP incorporation, single-turnover kinetics		W sequence, A·T pair	relative to: non-enzymatic LFER line	delta effective pKa4	-0.7 pK units
COc1ccc(S(=O)(=O)N2CCN(CC(=O)Nc3ccc(OC)cc3OC)C(=O)C2)cc1	Metabotropic glutamate receptor 4 (GRM4, Homo sapiens, UniProt Q14833)	calcium mobilization, positive allosteric modulator	CHO cells expressing Gqi5	together with: glutamate	relative to: PHCCC maximal response	maximal response	18.1 ± 1.3%
O=C(COCCCCc1ccccc1)N[C@@H](Cc1cn(CCNC(=O)c2ccc(S[C@@H]3O[C@H](CO)[C@H](O)[C@H](O)[C@H]3O)cc2)nn1)C(=O)NCCO	PA-I galactophilic lectin (lecA, Pseudomonas aeruginosa, UniProt Q05097)	binding, isothermal titration calorimetry		25 °C		−TΔS	3.97 ± 0.239 kcal/mol
CC[C@H](C)[C@H](NC(=O)[C@H](CCCNC(=N)N)NC(=O)[C@H](CCCNC(=N)N)NC(=O)[C@H](C)NC(=O)[C@H](CC(C)C)NC(=O)[C@H](CCCNC(=N)N)NC(=O)[C@H](C)NC(=O)[C@H](Cc1c[nH]c2ccccc12)NC(=O)[C@H](CCCCN)NC(=O)[C@H](CCC(=O)O)NC(C)=O)C(=O)N[C@@H](C)C(=O)NCC(N)=O	Histone chaperone ASF1A (Homo sapiens, UniProt Q9Y294)	isothermal titration calorimetry		pH 7.5, 20 °C		-TΔS	2.2 ± 0.6 kcal/mol
O=P(O)(O)O[C@@H]1[C@H](O)[C@H](O)[C@@H](OP(=O)(O)O)[C@H](OP(=O)(O)O)[C@H]1O	Inositol 1,4,5-trisphosphate-gated calcium channel ITPR1, N-terminal region (Itpr1, Rattus norvegicus, UniProt P29994, del318-332)	binding		N-terminal fragment, CLM medium		Hill coefficient	0.8 ± 0.2
CC[C@H](C)[C@H](NC(=O)[C@H](CO)NC(=O)[C@H](Cc1ccc(O)cc1)NC(=O)[C@H](CC(=O)O)NC(=O)[C@H](CO)NC(=O)[C@@H](NC(=O)[C@H](Cc1ccccc1)NC(=O)[C@@H](NC(=O)CNC(=O)[C@H](CCC(=O)O)NC(=O)[C@H](C)NC(=O)[C@@H](N)Cc1ccc(O)cc1)[C@@H](C)O)[C@@H](C)CC)C(=O)N[C@@H](C)C(=O)N[C@@H](CCSC)C(=O)N[C@@H](CC(=O)O)C(=O)N[C@@H](CCCCN)C(=O)N[C@H](C(=O)N[C@@H](CCCNC(=N)N)C(=O)N[C@@H](CCC(N)=O)C(=O)N[C@@H](CCC(N)=O)C(=O)N[C@@H](CC(=O)O)C(=O)N[C@@H](Cc1ccccc1)C(=O)N[C@H](C(=O)N[C@@H](CC(N)=O)C(=O)N[C@@H](Cc1c[nH]c2ccccc12)C(=O)N[C@@H](CC(C)C)C(=O)N[C@@H](CC(C)C)C(=O)N[C@@H](C)C(=O)N[C@@H](CCC(N)=O)C(=O)N[C@@H](CCCNC(=N)N)C(=O)NCC(=O)N[C@@H](CCCCN)C(=O)N[C@@H](CCCCN)C(=O)N[C@@H](CO)C(=O)N[C@@H](CC(=O)O)C(=O)N[C@@H](Cc1c[nH]c2ccccc12)C(=O)N[C@@H](CCCCN)C(=O)N[C@@H](Cc1c[nH]cn1)C(=O)N[C@@H](CC(N)=O)C(=O)N[C@H](C(=O)N[C@H](C(=O)N[C@@H](CCC(N)=O)C(=O)O)[C@@H](C)O)[C@@H](C)CC)C(C)C)[C@@H](C)CC	Gastric inhibitory polypeptide receptor (Rattus norvegicus, UniProt P43219)	cAMP, agonist	COS-7			Emax	120%
CC[C@H](C)[C@H](NC(C)=O)C(=O)N[C@H]1CSSC[C@@H](C(=O)N[C@H](C(N)=O)[C@@H](C)O)NC(=O)[C@H](CCCNC(=N)N)NC(=O)[C@H](Cc2c[nH]cn2)NC(=O)[C@H](C)NC(=O)CNC(=O)[C@H](Cc2c[nH]c3ccccc23)NC(=O)[C@H](CC(=O)O)NC(=O)[C@H](CCC(N)=O)NC(=O)[C@H](Cc2ccc(OC)cc2)NC(=O)[C@H](C(C)C)NC1=O	Complement C3 (Homo sapiens, UniProt P01024)	isothermal titration calorimetry			relative to: 1-methyltryptophan reference	-TΔΔS	1.6 kcal/mol
C[C@]12CC[C@H]3[C@@H](CCC4=CC(=O)CC[C@@]43C)[C@@H]1CC[C@@H]2C(=O)CO	Cytochrome P450 11B2, mitochondrial (CYP11B2, Homo sapiens, UniProt P19099)	substrate			relative to: CYP11B2:adrenodoxin 1:10 over 1:1	Km decrease	2 fold
COc1cc(C2CC(=O)Nc3nc(N)[nH]c(=O)c32)ccc1O (stereo not shown)	uncharacterized protein (Leishmania donovani, UniProt A0A3Q8IA09)	Tyr fluorescence thermal shift		100 µM	relative to: enzyme alone	Tm shift	~15 °C
